Assay results collected from several papers.
Protocols differ between the studies behind these lines.
Target: Alpha-glucosidase MAL12 (MAL12, Saccharomyces cerevisiae S288c, UniProt P53341)
Chain of UniProt P53341 (whole entry, looked up): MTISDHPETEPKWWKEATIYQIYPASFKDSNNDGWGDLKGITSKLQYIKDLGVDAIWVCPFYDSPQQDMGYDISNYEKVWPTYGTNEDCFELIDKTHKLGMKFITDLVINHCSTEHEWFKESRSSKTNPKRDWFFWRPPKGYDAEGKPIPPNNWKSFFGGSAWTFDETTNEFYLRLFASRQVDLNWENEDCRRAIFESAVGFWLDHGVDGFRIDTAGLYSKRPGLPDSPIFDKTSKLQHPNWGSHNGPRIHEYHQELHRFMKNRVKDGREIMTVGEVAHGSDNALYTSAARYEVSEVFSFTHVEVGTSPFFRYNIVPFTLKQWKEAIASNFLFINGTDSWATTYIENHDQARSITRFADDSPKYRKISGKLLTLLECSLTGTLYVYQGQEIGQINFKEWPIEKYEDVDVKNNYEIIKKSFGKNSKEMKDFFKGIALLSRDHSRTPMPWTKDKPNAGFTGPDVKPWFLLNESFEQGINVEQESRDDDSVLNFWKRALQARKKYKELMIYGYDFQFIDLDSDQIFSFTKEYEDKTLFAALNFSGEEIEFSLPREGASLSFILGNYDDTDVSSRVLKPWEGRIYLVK

For `CN(C)c1ccc(C(=NN=Cc2ccc(O)c(O)c2O)c2ccc(N(C)C)cc2)cc1`, activity read “inactive” (enzyme activity, inhibitor; concentration not given, pH 6.8, 37 °C, together with: p-nitrophenyl alpha-D-glucopyranoside).
`COc1cc(-c2oc3cc(O)cc(O)c3c(=O)c2OC)ccc1O` gave an inhibition of 43.1% (enzyme activity, inhibitor, absorbance; 10 µM).
`O=C1C(=O)N(CCOc2ccc(Br)cc2)c2ccccc21` gave an inhibition of 88.8% (enzyme activity, inhibitor; 500 µM, pH 6.8).
The inhibition of `COc1c(-c2cccc(O)c2)oc2c(OC)c(O)cc(O)c2c1=O` is reported as 47% (enzyme activity, inhibitor, absorbance; 5 µM).
`O=C(/C=C/c1ccc(O)c2oc(-c3ccc(O)c(O)c3)cc12)O[C@H](Cc1ccc(O)c(O)c1)C(=O)O` has a Ki uncompetitive of 8.8 µM (inhibitor; together with: 4-nitrophenyl α-glucopyranoside).
With `COc1cc(O)c2c(=O)c(OC)c(-c3ccc(O)c(O)c3)oc2c1` the inhibition was 14.2% (enzyme activity, inhibitor, absorbance; 25 µM).
`Cc1cccc(/C=C/C(=O)c2cnn(-c3ccccc3)c2C)c1` has an inhibition of 71.1% (enzyme activity, inhibitor; 500 µM).
`O=C1C(=O)N(CCOc2ccccc2)c2ccc(Cl)cc21` has an inhibition of 92.4% (enzyme activity, inhibitor; 500 µM, pH 6.8).
`CN(C)c1ccc(C(=N/N=C/c2c(O)ccc3ccccc23)c2ccc(N(C)C)cc2)cc1` — result for activity: “inactive” (enzyme activity, inhibitor; concentration not given, pH 6.8, 37 °C, together with: p-nitrophenyl alpha-D-glucopyranoside).
The inhibition of `O=C1C(=O)N(CCOc2ccccc2)c2ccc(Br)cc21` is reported as 87.6% (enzyme activity, inhibitor; 500 µM, pH 6.8).
`O=C1OCC(Cc2ccccc2)=C1c1ccccc1` gave a Vmax of 1.72 mM/min (enzyme activity; together with: p-nitrophenyl glucoside).

A few entries again:
The inhibition of `O=C1C(=O)N(CCOc2ccccc2)c2ccc(Br)cc21` is reported as 87.6% (enzyme activity, inhibitor; 500 µM, pH 6.8).
